# Experimental data pooled from the literature.
# Parts stem from different laboratories: compare values within a part only. Positions count from the first letter of the parent shown.

# Series 1 — target: CCND2, cyclin fold, Cln2 fusion (human); method: yeast growth competition, sequencing; sample: yeast; setting: weak parent motif; baseline: not given; direction: higher = stronger binding
# Starting sequence: MICAL3 docking peptide (human); LQLRRQLSFSEDS; partner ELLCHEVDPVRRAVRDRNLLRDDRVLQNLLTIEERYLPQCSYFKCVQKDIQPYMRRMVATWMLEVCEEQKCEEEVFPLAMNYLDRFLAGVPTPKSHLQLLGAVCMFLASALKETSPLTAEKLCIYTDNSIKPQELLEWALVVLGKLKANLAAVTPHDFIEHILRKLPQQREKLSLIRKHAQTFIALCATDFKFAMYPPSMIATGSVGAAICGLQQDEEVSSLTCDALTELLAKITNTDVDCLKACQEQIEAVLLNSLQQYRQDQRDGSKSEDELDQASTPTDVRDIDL
Variant,normalised enrichment score
LQLRRQLSFSEYS [D12Y],0.156
LQLRRQLSFSEVS [D12V],0.256
LQLRIQLSFSEDS [R5I],0.486
LQLRTQLSFSEDS [R5T],0.127
LQLRRQLSCSEDS [F9C],0.121
LQLLRQLSFSEDS [R4L],-0.0841
LQLRRQLSFKEDS [S10K],0.356
LQLRRQLSFSPDS [E11P],0.343

# Series 2 — method: protein binding microarray; molecule type: double-stranded DNA, one strand shown; sample: in vitro; tested at: not given; baseline: not given; direction: higher = stronger binding
# Target: Histone acetyltransferase KAT6A, winged helix 2, GST fusion (KAT6A, Homo sapiens, UniProt Q92794, residues 85-181)
# Setting: 8-mer, flanks averaged, mean of 2 arrays, mostly near background
# Residues (chain): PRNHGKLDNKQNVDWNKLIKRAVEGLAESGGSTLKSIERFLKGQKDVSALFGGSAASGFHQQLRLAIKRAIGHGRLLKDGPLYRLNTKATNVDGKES
Strand,E-score
AAAGAACC,0.00437
TAACGCCA,-0.0423
AGAACAAG,0.0458
ACTGCGGC,0.152
GACTGACC,-0.0994
CGATGGCG,-0.0543
ACCCAGCA,0.0663

# Series 3 — method: universal PBM; molecule type: double-stranded DNA, one strand shown; sample: in vitro; tested at: 600 nM; direction: higher = stronger binding
# Target: Sal-like protein 4, full length isoform A (SALL4, Homo sapiens, UniProt Q9UJQ4, residues 1-1053)
# Chain of UniProt Q9UJQ4 (whole entry, looked up): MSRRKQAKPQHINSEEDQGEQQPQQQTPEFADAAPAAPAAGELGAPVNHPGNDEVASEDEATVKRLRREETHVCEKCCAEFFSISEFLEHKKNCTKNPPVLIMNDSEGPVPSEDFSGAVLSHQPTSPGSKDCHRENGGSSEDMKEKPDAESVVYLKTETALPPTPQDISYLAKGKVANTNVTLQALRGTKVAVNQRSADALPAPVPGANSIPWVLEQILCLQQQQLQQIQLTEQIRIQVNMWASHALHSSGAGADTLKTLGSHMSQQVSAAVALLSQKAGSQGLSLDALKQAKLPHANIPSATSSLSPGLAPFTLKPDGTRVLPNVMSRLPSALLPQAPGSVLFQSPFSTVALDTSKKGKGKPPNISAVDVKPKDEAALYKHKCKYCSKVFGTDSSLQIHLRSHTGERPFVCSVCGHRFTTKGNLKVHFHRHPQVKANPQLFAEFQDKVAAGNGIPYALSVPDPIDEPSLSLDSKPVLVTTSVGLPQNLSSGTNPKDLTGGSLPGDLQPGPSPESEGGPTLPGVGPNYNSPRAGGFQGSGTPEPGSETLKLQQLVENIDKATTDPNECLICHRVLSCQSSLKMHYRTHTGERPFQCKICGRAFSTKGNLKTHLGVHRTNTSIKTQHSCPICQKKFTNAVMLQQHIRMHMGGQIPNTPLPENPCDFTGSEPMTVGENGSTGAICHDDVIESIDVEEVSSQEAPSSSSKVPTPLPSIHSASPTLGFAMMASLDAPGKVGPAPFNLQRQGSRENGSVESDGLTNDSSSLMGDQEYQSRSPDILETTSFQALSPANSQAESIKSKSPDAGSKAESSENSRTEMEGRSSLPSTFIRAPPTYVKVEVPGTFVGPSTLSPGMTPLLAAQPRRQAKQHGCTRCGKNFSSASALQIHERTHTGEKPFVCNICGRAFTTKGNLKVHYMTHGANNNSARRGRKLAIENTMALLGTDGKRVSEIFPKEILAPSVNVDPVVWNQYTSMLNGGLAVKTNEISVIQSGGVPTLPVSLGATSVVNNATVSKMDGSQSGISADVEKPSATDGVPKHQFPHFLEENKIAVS
# Setting: 8-mer, flanks averaged, mean of replicates
Strand,E-score
AAACTTGT,0.304
CTATGGGC,-0.152
AGCGACAC,-0.0982
TATCAGCA,0.102
GGCTCCTA,-0.196
ATTGGCCA,-0.12
AAACGTTA,0.185
CCGATATA,0.254
CTCCTCGA,-0.19

# Other studies, line by line
Molecule,target,assay,system,conditions,how to read,measurement,result
"PhoQ, residues 284 288 289 292 302 303 TLASMF","PhoP, residues 12 14 15 18 19 AWHSL (Escherichia coli, UniProt P23836)","Sort-seq, item: YFP reporter",E. coli,"PhoQ-PhoP variant library, together with: 10 µM Mg2+","baseline: high Mg2+ state, higher = stronger signaling",fold induction,3.78

# Repeated from above (series 2):
Strand,E-score
CGATGGCG,-0.0543
AAAGAACC,0.00437
